Measurements of several laboratories.
Protocols differ between the studies behind these lines. ± marks the error that the study gave.

Cn1cnc(Cn2c(=O)[nH]/c(=N\c3cc4cn(C)nc4cc3Cl)n(Cc3cc(F)c(F)cc3F)c2=O)n1  Cmax (healthy Japanese adults, plasma; oral, 125 mg, day 5, fasted, with midazolam): 21900 ng/mL
O=C[C@H](C[C@@H]1CCNC1=O)NC(=O)[C@H](CC1CCCCC1)NC(=O)c1cc2ccccc2[nH]1  AUC (dog, plasma; intravenous, 16 mg/kg): 32400 ng·h/mL
C[C@@H]1Cc2c(Cl)cc(C(=O)N[C@@H](Cc3ccccc3)C(=O)O)c(O)c2C(=O)O1  body weight to egg weight ratio (chicken embryo; in ovo injection, 0.25 µg/egg): 72.3 ± 2.9
Cn1cnc(Cn2c(=O)[nH]/c(=N\c3cc4cn(C)nc4cc3Cl)n(Cc3cc(F)c(F)cc3F)c2=O)n1  any TEAE, severe severity (human, severe renal impairment; oral, 375 mg): 0%
CC[C@H](C)[C@H](NC(=O)[C@H](CC(C)C)NC(=O)[C@H](Cc1c[nH]c2ccccc12)NC(=O)[C@H](CCC(N)=O)NC(=O)[C@@H](NC(=O)[C@H](Cc1ccccc1)NC(=O)[C@H](C)NC(=O)[C@H](CCCCNC(=O)COCCOCCNC(=O)COCCOCCNC(=O)CC[C@H](NC(=O)CCCCCCCCCCCCCCCCCCC(=O)O)C(=O)O)NC(=O)[C@H](CCC(N)=O)NC(=O)[C@H](C)NC(=O)[C@@H](NC(=O)[C@H](CCCCN)NC(=O)[C@H](CC(=O)O)NC(=O)[C@H](CC(C)C)NC(=O)C(C)(C)NC(=O)[C@@H](NC(=O)[C@H](CO)NC(=O)[C@H](Cc1ccc(O)cc1)NC(=O)[C@H](CC(=O)O)NC(=O)[C@H](CO)NC(=O)[C@@H](NC(=O)[C@H](Cc1ccccc1)NC(=O)[C@@H](NC(=O)CNC(=O)[C@H](CCC(=O)O)NC(=O)C(C)(C)NC(=O)[C@@H](N)Cc1ccc(O)cc1)[C@@H](C)O)[C@@H](C)O)[C@@H](C)CC)[C@@H](C)CC)C(C)C)C(=O)N[C@@H](C)C(=O)NCC(=O)NCC(=O)N1CCC[C@H]1C(=O)N[C@@H](CO)C(=O)N[C@@H](CO)C(=O)NCC(=O)N[C@@H](C)C(=O)N1CCC[C@H]1C(=O)N1CCC[C@H]1C(=O)N1CCC[C@H]1C(=O)N[C@@H](CO)C(N)=O  subjects with adverse event (measured: treatment-emergent catheter site bruise; healthy subjects; 4.5 mg, multiple ascending dose): 16.7%
C[C@H]1CN(C(=O)CC#N)[C@]12CCN(c1ncnc3[nH]ccc13)C2  subjects with positive SARS-CoV-2 test (healthy human; oral, 3 mg single): 0%
CC(C)C(=O)OC[C@H]1O[C@@H](n2ccc(NO)nc2=O)[C@H](O)[C@@H]1O  remaining compound (rat plasma; 100 µM, 0.5 h, with: digitonin 100 µM): 0%
Nc1ncnc2c([C@@H]3N[C@H](CO)[C@@H](O)[C@H]3O)c[nH]c12  inhibition (Marburg virus; viral RNA in cell lysate; HeLa, Musoke; 100 µM, 12 h): 91.7%
O=C(Nc1cc(C(F)(F)F)ccc1N1CCCCC1)c1ccncc1  inhibition (Replicase polyprotein 1ab, main protease (rep, Severe acute respiratory syndrome coronavirus 2, UniProt P0DTD1); reporter gene (Gaussia luciferase), inhibitor; 20 µM): 3%
CC(C)(C)[C@H](NC(=O)C(F)(F)F)C(=O)N1C[C@H]2[C@@H]([C@H]1C(=O)N[C@H](C#N)C[C@@H]1CCNC1=O)C2(C)C  Cmax (healthy humans, fasted, plasma; oral, 1500 mg single dose): 1540 ng/mL
Cc1cc(C)c(CNC(=O)c2cc(Cl)c3c(c2C)O[C@@](C)([C@H]2CC[C@H](N(C)C)CC2)O3)c(=O)[nH]1  incidence of COVID-19 pneumonia (relapsed/refractory NHL patients; dose not given, trial, safety set, treatment-related TEAE grade 1 or 2): 0%
CNC(=O)[C@@H](NC(=O)[C@H](CC(C)C)[C@H](O)C(=O)NO)C(C)(C)C  remaining activity (Daboia russelii venom proteases (SVMP); protease activity, inhibitor; KA population; 100 µM, with: azocasein substrate; relative to: venom alone): 0%

Excerpt of the above:
C[C@@H]1Cc2c(Cl)cc(C(=O)N[C@@H](Cc3ccccc3)C(=O)O)c(O)c2C(=O)O1  body weight to egg weight ratio (chicken embryo; in ovo injection, 0.25 µg/egg): 72.3 ± 2.9
Cn1cnc(Cn2c(=O)[nH]/c(=N\c3cc4cn(C)nc4cc3Cl)n(Cc3cc(F)c(F)cc3F)c2=O)n1  any TEAE, severe severity (human, severe renal impairment; oral, 375 mg): 0%
